Results of several laboratories.
Lines come from different studies, so protocols differ.
KRAS G12D: GTPase KRas (KRAS, Homo sapiens, UniProt P01116, G12D)
KRAS: GTPase KRas (KRAS, Homo sapiens, UniProt P01116)

SMILES	target	observed	mode	technique	setting	together with	IC50 [µM]
Cc1ncsc1-c1ccc(C(CO)NC(=O)C2CC(O)CN2C(=O)C(C(C)C)n2cc(-c3ccc(COc4c(-c5c(C)c(F)cc6[nH]ncc56)c(C5CC5)cc5c(N6CC7CC6CN7)nc(OC6CCOCC6)nc45)cc3)nn2)cc1 (stereo not shown)	GTPase KRas, with RAF (KRAS, Homo sapiens, UniProt P01116)	KRAS-RAF binding	inhibitor	TR-FRET	–	SOS	> 10
COCCNc1nc(-c2nccn2C)nc2sc(-c3cccc(OC)c3Cl)c(-c3ccccc3)c12	KRAS G12D	GTP binding	inhibitor	cell-free GTP competition	–	fluorescent GTP 100 nmol/L	2.5
C=CC(=O)N1CCN(c2nc(OCC34CCCN3CCC4)nc3c(F)c(-c4ccc(F)c5sc(N)nc45)c(C(F)(F)F)cc23)CC1	GTPase KRas, GppNHp; with RAF1 RBD (KRAS, Homo sapiens, UniProt P01116, G12C)	KRAS G12C-RAF1 RBD interaction	inhibitor	HTRF	GppNHp-bound	–	0.14
C#Cc1cccc2cc(O)cc(-c3ncc4c(N5CC6CCC(C5)N6)nc(OCC56CCCN5CCC6)nc4c3F)c12	KRAS G12D	target engagement in cells	–	BRET	–	–	< 0.1
Cn1cnc(Cn2ccc3ccc(CNCc4[nH]c5ccccc5c4C4NC(=O)c5ccc(O)cc54)cc32)c1 (stereo not shown)	KRAS	enzyme activity	inhibitor	–	–	–	26.9
COC1CCC(Nc2nc(-c3nccn3C)nc3sc(-c4ccn(C)n4)c(-c4ccccc4)c23)C1 (stereo not shown)	GTPase KRas (KRAS, Homo sapiens, UniProt P01116, Q61H)	GTP binding	inhibitor	cell-free GTP competition	–	fluorescent GTP 100 nmol/L	3
CC(C)(C)OC(=O)NCCNC(=O)c1ccc2[nH]c(/C(=N/Nc3ccc(F)cc3)c3ccc(O)cc3)nc2c1	KRAS G12D	enzyme activity	inhibitor	–	–	–	1270
C=CC(=O)N1C[C@H](C)N(c2nc(OC[C@@]34CCCN3C[C@H](F)C4)nc3c(F)c(-c4ccc(F)c5sc(N)c(C#N)c45)c(C(F)(F)F)cc23)C[C@H]1C	GTPase KRas, GTP; with RAF1 RBD (KRAS, Homo sapiens, UniProt P01116, G12C)	–	inhibitor	–	–	–	< 0.1
COc1cccc(-c2ccc(Nc3ccc(CN(C)C)cc3)c(OC)c2F)c1	KRAS	enzyme activity	inhibitor	–	–	–	> 3000
Nc1nc2c(-c3c(C(F)(F)F)cc4c(N5CCNCC5)nc(OCC56CCCN5CCC6)nc4c3F)ccc(F)c2s1	GTPase KRas, with RAF1 RBD (KRAS, Homo sapiens, UniProt P01116, G12D)	KRAS G12D-RAF1 binding	–	HTRF	–	–	1.4

For quick reference, copied from above:
SMILES	target	observed	mode	technique	setting	together with	IC50 [µM]
C#Cc1cccc2cc(O)cc(-c3ncc4c(N5CC6CCC(C5)N6)nc(OCC56CCCN5CCC6)nc4c3F)c12	KRAS G12D	target engagement in cells	–	BRET	–	–	< 0.1
